Measured values from different studies.
Several values in a cell are separate wells, animals, samples, runs or records. ± gives the spread as reported.
AKR1C1: Aldo-keto reductase family 1 member C1 (AKR1C1, Homo sapiens, UniProt Q04828)
SIRT1: NAD-dependent protein deacetylase sirtuin-1 (SIRT1, Homo sapiens, UniProt Q96EB6)
TRPV1: Transient receptor potential cation channel subfamily V member 1 (TRPV1, Homo sapiens, UniProt Q8NER1)
PPO3: PPO3 (Agaricus bisporus, UniProt C7FF04)
IDO1: Indoleamine 2,3-dioxygenase 1 (IDO1, Homo sapiens, UniProt P14902)

COc1cc(C(=O)NC2CCC(N3CCN(CC4CCC5(CCCC5)C4)CC3)CC2)c(F)cc1Nc1ncc2c(n1)N(C1CCCC1(F)F)CC(F)(F)C(=O)N2C (stereo not shown)
inhibition (Cyclin-dependent kinase 7 (CDK7, Homo sapiens, UniProt P50613); cell-free assay, TR-FRET; 10 µM): 7.58%

CCCC[C@H](NC(C)=O)C(=O)N1CCC[C@H]1C(=O)N[C@@H](CO)C(=O)N[C@@H](CO)C(=O)N[C@@H](C)C(=O)N[C@@H](CO)C(=O)N[C@@H](CCCNC(=N)N)C(=O)N[C@@H](CCC(N)=O)C(=O)N[C@@H](CC(C)C)C(=O)N[C@@]1(C)CCCC=CCCC[C@@](C)(C(=O)N[C@@H](CCCCN)C(=O)N[C@@H](CCC(=O)O)C(=O)N[C@H](C(=O)N[C@@H](CCC(N)=O)C(N)=O)[C@@H](C)CC)NC(=O)[C@H](CCC(N)=O)NC(=O)[C@H](CCCCN)NC(=O)[C@H](CCCNC(=N)N)NC1=O
inhibition (Ubiquitin-like modifier-activating enzyme 1 (UBA1, Homo sapiens, UniProt P22314); ubiquitin thioester transfer to UBE2D2, inhibitor; concentration not given, staple-scanning screen): inactive

COc1ccc2c(c1)CC[C@@H]1[C@@H]2CC[C@]2(C)C(=O)CC[C@@H]12
inhibition (AKR1C1; enzyme activity, inhibitor, absorbance; 10 µM, pH 9): 8.2%

N#C/C(=C\c1ccc(-c2cc(Cl)ccc2Cl)o1)C(=O)Nc1cccc2ncccc12
inhibition (SIRT1; enzyme activity, inhibitor; 100 µM): 62%

C#CCSc1nc(Sc2nnnn2-c2ccccc2)c2nnn(Cc3ccccc3Cl)c2n1
inhibition (Cyclin-dependent kinase 7, with cyclin H (CDK7, Homo sapiens, UniProt P50613); enzyme activity, inhibitor; 10 µM): < 15%

COc1ccc(-c2ccc3ncc4c(c3c2)n(-c2ccc(N3CCNCC3)c(C(F)(F)F)c2)c(=O)n4C)cn1
inhibition (Serine/threonine-protein kinase ATR (ATR, Homo sapiens, UniProt Q13535); autophosphorylation, Western blot, measured: phospho-ATR; HEK293; concentration not given, with: neocarzinostatin): no inhibition

C[C@@H](N)C1CCN(S(=O)(=O)c2cccc3cnccc23)CC1
inhibition (BMP-2-inducible protein kinase (BMP2K, Homo sapiens, UniProt Q9NSY1); cell-free assay, competition with immobilised ligand; 10 µM): > 95%

COc1cc2c(cc1Cl)[C@H]1CC[C@@]3(C)C(=O)CC[C@H]3[C@@H]1CC2
inhibition (AKR1C1; enzyme activity, inhibitor, absorbance; 100 µM, pH 9): 35.7%

CNC(=O)[C@@]12C[C@@H]1[C@@H](n1cnc3c(NCc4cccc(Cl)c4)nc(C#Cc4cccc(Cl)c4)nc31)[C@H](O)[C@@H]2O
inhibition (Sodium-dependent dopamine transporter (SLC6A3, Homo sapiens, UniProt Q01959); ligand displacement, radioligand; 10 µM): 26%

N[C@@H](CCC(=O)N[C@@H](CS[Se]Cc1ccc(-c2cccc(C(O)c3ccc(Cl)c(Cl)c3)c2)cc1)C(=O)NCC(=O)O)C(=O)O (stereo partly shown)
inhibition (Cathepsin B (CTSB, Homo sapiens, UniProt P07858); enzyme activity; concentration not given, with: Z-RR-AMC substrate, 1 mM GSH): no inhibition

C[C@@]12CC[C@@H]3c4ccc(O)c(I)c4CC[C@H]3[C@@H]1CCC2=O
inhibition (AKR1C1; enzyme activity, inhibitor, absorbance; 10 µM, pH 9): 2.3%

C[N+](C)(CC(=O)Nc1cccc(C(F)(F)F)c1)CC(=O)Nc1cccc(C(F)(F)F)c1
inhibition (TRPV1; calcium influx, inhibitor; HeLa cells transfected; 1 µM, with: 5 µM capsaicin): no inhibition

CCCCOc1ccc(C2CC(c3ccc(C)cc3)=Nc3ccccc3S2)cc1OC (stereo not shown)
inhibition (PPO3; enzyme activity, inhibitor; 25 µg/mL): 63%

CC[C@H](C)[C@H](NC(=O)[C@H](CCC(=O)O)NC(=O)[C@@H](NC(=O)[C@H](CCC(N)=O)NC(=O)[C@@H](N)CCCCN)[C@@H](C)CC)C(=O)N[C@@H](CCCCN)C(=O)N[C@@H](CCCCN)C(=O)N[C@@H](Cc1ccccc1)C(=O)N[C@@H](CCCCN)C(=O)O
inhibition (Gap junction alpha-1 protein (GJA1, Homo sapiens, UniProt P17302); ATP release, inhibitor; C6-Cx43; 250 µM, expected value): 97%

CC(=O)c1cnc(N)nc1N1CC[C@H]1c1nn2ccc(Cl)c2c(=O)n1-c1ccccc1
inhibition (Voltage-dependent L-type calcium channel subunit alpha-1C (CACNA1C, Homo sapiens, UniProt Q13936); ion current, inhibitor; 3 µM): < 10%

COc1ccc(-c2n[nH]cc2/C=C2\SC(=S)N(CC(=O)O)C2=O)cc1
inhibition (SIRT1; enzyme activity, inhibitor, fluorescence; 10 µM): < 30%

C[C@]12CCC[C@H]1[C@@H]1CCc3c(cc(I)c(O)c3I)[C@H]1CC2
inhibition (AKR1C1; enzyme activity, inhibitor, absorbance; 10 µM, pH 9): 17.5%

O=C(N[C@@H](CC1CCCCC1)C(=O)N[C@@H](C[C@H]1CCNC1=O)C(=O)C(=O)NC1CC1)OCc1cccc(Cl)c1
inhibition (Chymotrypsinogen A (Bos taurus, UniProt P00766); enzyme activity, inhibitor; 2.5 µM, inhibitor/enzyme ratio 250): 0%

CC(=O)C12NC(C)(C)CC1(C)C(=O)C1=C2c2c(c3c4n2C(C)(C)CC2=C4C4(CC(C)(C)NC(C)(C4)C2=O)CC3(C)C)C(=O)C(C)(C)N1 (single isomer, unassigned; (+))
inhibition (Voltage-dependent P/Q-type calcium channel subunit alpha-1A (Homo sapiens, UniProt O00555); ion current, inhibitor, patch clamp; HEK-293T; 10 µM): 64.5% and 57.3%

O=C(O)c1ccc(-c2coc3ncc(-c4ccccc4)cc23)cc1Cl
inhibition (MAP kinase-interacting serine/threonine-protein kinase 1 (MKNK1, Homo sapiens, UniProt Q9BUB5); kinase activity, inhibitor, cell-free kinase panel; 1 µM): inhibited

NCCC(=O)N[C@@H](Cc1c[nH]c2ccccc12)C(=O)N[C@@H](Cc1ccc(Cl)cc1)C(=O)N[C@@H](Cc1ccncc1)C(N)=O
inhibition (Ephrin type-A receptor 4, ectodomain (Epha4, Mus musculus, UniProt Q03137); ephrin-A5 binding, antagonist, ELISA; 500 µM, with: ephrin-A5-AP): 75%

C[C@]12CC[C@@H]3c4cc(Cl)c(O)cc4CC[C@H]3[C@@H]1CCC2=O
inhibition (AKR1C1; enzyme activity, inhibitor, absorbance; 100 µM, pH 9): 91.6%

Cc1ccc(C2=Nc3ccccc3SC(c3ccc(Cl)cc3)C2)cc1 (stereo not shown)
inhibition (PPO3; enzyme activity, inhibitor; 25 µg/mL): 34%

CNC(=O)c1ccccc1Oc1nc(Nc2cc(OC)c(OC)c(OC)c2)ncc1Br
inhibition (Serine/threonine-protein kinase PAK 4 (PAK4, Homo sapiens, UniProt O96013); enzyme activity, inhibitor; 1 µM): 30 to 50%

CCCC[C@H](C)/C=C(C)/C=C/C(=O)O
inhibition (Transient receptor potential cation channel subfamily V member 4 (TRPV4, Homo sapiens, UniProt Q9HBA0); calcium influx, fluorescence calcium; 0.1 to 10 µM, with: hypotonic solution): no effect

O=C(CCCCCCN1CCN(c2ccc(Nc3ncc(F)c(-c4cn(C5CCCC5)nn4)n3)cc2)CC1)NO
inhibition (Histone deacetylase 11 (HDAC11, Homo sapiens, UniProt Q96DB2); enzyme activity, inhibitor; 500 nM): no effect

COc1cc2ncc3c(c2cc1-c1cnn(C)c1)n(-c1ccc(C#N)cc1F)c(=O)n3C
inhibition (ARK5; kinase activity, inhibitor; 1 µM): > 50%

COc1cc(C)c2c(=O)cc(C[C@@H](C)O)oc2c1[C@@H]1O[C@H](CO)[C@@H](O)[C@H](O)[C@H]1O
inhibition (IDO1; kynurenine formation; 100 µM): 26.7 ± 0.98%

COCC12C(=O)NC3C4(C(OC)CC1O)C1CC5(O)C(OC)C(O)C(OC(C)=O)(C1C5OC(=O)c1ccccc1)C3(O)C(OC)C24 (stereo not shown)
inhibition (MAP kinase-activated protein kinase 5 (MAPKAPK5, Homo sapiens, UniProt Q8IW41); enzyme activity; 25 µM, with: RBER-CHKtide): no inhibition

O=C1/C(=C/c2ccc(-c3ccccc3)cc2)Oc2cc(O)ccc21
inhibition (ERO1-like protein alpha (Homo sapiens, UniProt Q96HE7, C104A/C131A/C166A); enzyme activity, inhibitor, fluorescence; 10 µM): 20.7%

C[C@@H]1O[C@@H](OCc2cc(O)c3c(c2)[C@](O)([C@@H]2O[C@H](CO)[C@@H](O)[C@H](O)[C@H]2O)c2cccc(O)c2C3=O)[C@H](O)[C@H](O)[C@H]1O
inhibition (IDO1; kynurenine formation; 100 µM): 63 ± 1.84%

CC(=O)Nc1cc(COc2c(Cl)cc(CC(N)C(=O)O)cc2Cl)c2oc(-c3ccccc3)nc2c1 (stereo not shown)
inhibition (Sodium-coupled neutral amino acid transporter 4 (SLC38A4, Homo sapiens, UniProt Q969I6); L-alanine uptake; Xenopus oocytes; 1 and 10 µM, 30 min, with: L-[14C]alanine 50 µM): no inhibition

CCOc1ccc(C2CC(c3ccc(C)cc3)=Nc3ccccc3S2)cc1 (stereo not shown)
inhibition (PPO3; enzyme activity, inhibitor; 25 µg/mL): 45%

COc1cc(-c2c(C)cc(O[C@@H]3O[C@H](CO)[C@@H](O)[C@H](O)[C@H]3O)cc2O[C@@H]2O[C@H](CO)[C@@H](O)[C@H](O)[C@H]2OC(=O)/C=C/c2ccc(O)cc2)oc(=O)c1
inhibition (IDO1; kynurenine formation; 100 µM): 20.56 ± 0.15%

C[C@H](NC(=O)c1ccc2c(c1)nc(-c1c(F)cccc1Cl)n2C1CCCCC1)C(=O)O
inhibition (SIRT1; enzyme activity, inhibitor, fluorescence; 10 µM): < 30%

OB(O)c1cnn(-c2cccc(Cl)c2)c1
inhibition (Proteasome Macropain subunit PRE2 (PRE2, Saccharomyces cerevisiae S288c, UniProt P30656); 20S proteasome activity; 100 µM, with: Suc-LLVY-AMC): ≤ 20%

C/C=C/c1cc(=O)c2c(C)cc(OC)c([C@@H]3O[C@H](CO)[C@@H](O)[C@H](O)[C@H]3OC(=O)/C=C/c3ccc(O)cc3)c2o1
inhibition (IDO1; kynurenine formation; 100 µM): 22.8 ± 0.48%

C[C@@]12CC[C@@H]3c4cc(Br)c(O)cc4CC[C@H]3[C@@H]1CCC2=O
inhibition (AKR1C1; enzyme activity, inhibitor, absorbance; 10 µM, pH 9): 47.2%

Cc1cc2c(NC(=O)N[C@@H]3CC(C)(C)Oc4cc(C(F)(F)F)ccc43)cccc2cn1
inhibition (TRPV1; acid-evoked calcium influx, antagonist; HEK293, human; 11.25 µM, pH 5): 76.2 ± 6.6%

C[C@]12CC[C@@H]3c4cc(I)c(O)cc4CC[C@H]3[C@@H]1CCC2=O
inhibition (AKR1C1; enzyme activity, inhibitor, absorbance; 10 µM, pH 9): 31.3%

CCCC[C@@H]1NC(=O)[C@H]([C@@H](C)O)NC(=O)[C@H](CCCNC(=N)N)NC(=O)CNC(=O)CC[C@@H](C(=O)N[C@@H](C)C(=O)N[C@@H](CCCNC(=N)N)C(=O)N[C@@H](CCCCN)C(=O)N[C@@H](CO)C(=O)N[C@H](C(=O)NCC(=O)NCC(N)=O)[C@@H](C)O)NC(=O)[C@H](CCC(N)=O)NC1=O
inhibition (Histone-lysine N-methyltransferase SETD7 (SETD7, Homo sapiens, UniProt Q8WTS6); enzyme activity, inhibitor, MALDI-TOF MS; 50 µM, 10 min preincubation, 30 min, pH 8, 37 °C, enzyme 500 nM, with: H3 1-21 peptide, SAM 30 µM): 100%

C[C@@]12CC[C@@H]3c4ccc(O)cc4CC[C@H]3[C@@H]1CCC2=O
inhibition (AKR1C1; enzyme activity, inhibitor, absorbance; 100 µM, pH 9): 22.5%

N=C(N)SCc1cccc(CSC(=N)N)c1
inhibition (IDO1; enzyme activity, inhibitor, biochemical; concentration not given): inactive

A few entries again:
C#CCSc1nc(Sc2nnnn2-c2ccccc2)c2nnn(Cc3ccccc3Cl)c2n1
inhibition (Cyclin-dependent kinase 7, with cyclin H (CDK7, Homo sapiens, UniProt P50613); enzyme activity, inhibitor; 10 µM): < 15%

CCCC[C@H](NC(C)=O)C(=O)N1CCC[C@H]1C(=O)N[C@@H](CO)C(=O)N[C@@H](CO)C(=O)N[C@@H](C)C(=O)N[C@@H](CO)C(=O)N[C@@H](CCCNC(=N)N)C(=O)N[C@@H](CCC(N)=O)C(=O)N[C@@H](CC(C)C)C(=O)N[C@@]1(C)CCCC=CCCC[C@@](C)(C(=O)N[C@@H](CCCCN)C(=O)N[C@@H](CCC(=O)O)C(=O)N[C@H](C(=O)N[C@@H](CCC(N)=O)C(N)=O)[C@@H](C)CC)NC(=O)[C@H](CCC(N)=O)NC(=O)[C@H](CCCCN)NC(=O)[C@H](CCCNC(=N)N)NC1=O
inhibition (Ubiquitin-like modifier-activating enzyme 1 (UBA1, Homo sapiens, UniProt P22314); ubiquitin thioester transfer to UBE2D2, inhibitor; concentration not given, staple-scanning screen): inactive

C/C=C/c1cc(=O)c2c(C)cc(OC)c([C@@H]3O[C@H](CO)[C@@H](O)[C@H](O)[C@H]3OC(=O)/C=C/c3ccc(O)cc3)c2o1
inhibition (IDO1; kynurenine formation; 100 µM): 22.8 ± 0.48%

CNC(=O)c1ccccc1Oc1nc(Nc2cc(OC)c(OC)c(OC)c2)ncc1Br
inhibition (Serine/threonine-protein kinase PAK 4 (PAK4, Homo sapiens, UniProt O96013); enzyme activity, inhibitor; 1 µM): 30 to 50%

O=C(CCCCCCN1CCN(c2ccc(Nc3ncc(F)c(-c4cn(C5CCCC5)nn4)n3)cc2)CC1)NO
inhibition (Histone deacetylase 11 (HDAC11, Homo sapiens, UniProt Q96DB2); enzyme activity, inhibitor; 500 nM): no effect

COc1ccc(-c2n[nH]cc2/C=C2\SC(=S)N(CC(=O)O)C2=O)cc1
inhibition (SIRT1; enzyme activity, inhibitor, fluorescence; 10 µM): < 30%
